# Published values from different studies.
# Numbered parts are unrelated; each lists some results of a single study. Positions count from the first letter of the parent shown.

# Block 1
# Target: Histone acetyltransferase KAT6A, both winged helices, GST fusion (KAT6A, Homo sapiens, UniProt Q92794, residues 1-181)
# Method: protein binding microarray
# Form: double-stranded DNA, one strand shown
# Medium: in vitro
# Tested at: not given
# Setting: 8-mer, flanks averaged, mean of 2 arrays, mostly near background
# Baseline: not given
# Direction: higher = stronger binding
# Construct (chain): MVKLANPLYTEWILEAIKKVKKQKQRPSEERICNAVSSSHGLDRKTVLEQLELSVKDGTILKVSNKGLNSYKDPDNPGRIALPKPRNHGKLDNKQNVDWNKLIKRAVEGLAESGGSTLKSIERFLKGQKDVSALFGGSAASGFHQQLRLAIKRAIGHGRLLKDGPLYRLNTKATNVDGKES
Oligonucleotide,E-score
GATTAAAA,-0.0584
CTTAGGTA,-0.283
AACGACTC,-0.18
CAGGTGGA,-0.198
ACACTGTG,-0.00579

# Block 2
# Target: Max-binding protein MNT, bHLH-zipper, MAX partner unstated (MNT, Homo sapiens, UniProt Q99583, residues 220-300)
# Method: protein-binding microarray
# Form: double-stranded DNA, one strand shown
# Medium: in vitro
# Tested at: not given
# Setting: k-mer, scored over probes, only values ≥0.25
# Direction: higher = stronger binding
# Target sequence (chain): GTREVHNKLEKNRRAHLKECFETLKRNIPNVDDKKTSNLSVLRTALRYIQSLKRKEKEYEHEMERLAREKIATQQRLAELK
Oligonucleotide,E-score
CTCATGGA,0.271
CACGCGGA,0.47
CGTGTACA,0.306
CGTGGCGC,0.304
CATCACAC,0.305
CGGGCACA,0.28
CGTGATTC,0.3
CCCACGCC,0.364

# Block 3
# Target: ABI1, truncated, D143A, DHFR fusion (Arabidopsis thaliana)
# Method: DHFR PCA, deep sequencing
# Medium: yeast
# Setting: methotrexate growth selection, single substitutions
# With: (+)-ABA 2500 µM
# Baseline: wild-type fitted maximum
# Direction: higher = stronger binding
# Starting sequence: PYL1, truncated, DHFR fusion (Arabidopsis thaliana); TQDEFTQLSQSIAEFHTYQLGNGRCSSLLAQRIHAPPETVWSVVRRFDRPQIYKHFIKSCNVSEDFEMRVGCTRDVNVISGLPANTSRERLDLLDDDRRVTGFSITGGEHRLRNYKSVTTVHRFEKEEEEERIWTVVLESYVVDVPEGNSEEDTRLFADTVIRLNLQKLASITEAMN
Change,relative binding score
V70R,89%
G107T,94.3%
L82A,86.7%
A84K,-0.00551%
C25R,64%
E89Y,3.55%

# Single results of other studies
Substance,target,test,test system,conditions,how to read,measurement,value
"PhoQ, residues 284 288 289 292 302 303 SASVAL","PhoP, residues 12 14 15 18 19 LHHVQ (Escherichia coli, UniProt P23836)","Sort-seq, refers to: YFP reporter",E. coli,"PhoQ-PhoP variant library, with: 10 µM Mg2+","baseline: high Mg2+ state, higher = stronger signaling",fold induction,3.96

# A few entries again (block 1):
Oligonucleotide,E-score
CTTAGGTA,-0.283
GATTAAAA,-0.0584
ACACTGTG,-0.00579
